Published values pooled from the literature.
Each line is one published result; not all experiments were run side by side. Several values in a cell are separate wells, animals, samples, runs or records. Numbers after ± are the reported error.
ABCG2: Broad substrate specificity ATP-binding cassette transporter ABCG2 (ABCG2, Homo sapiens, UniProt Q9UNQ0)
Chain of UniProt Q9UNQ0 (whole entry, looked up): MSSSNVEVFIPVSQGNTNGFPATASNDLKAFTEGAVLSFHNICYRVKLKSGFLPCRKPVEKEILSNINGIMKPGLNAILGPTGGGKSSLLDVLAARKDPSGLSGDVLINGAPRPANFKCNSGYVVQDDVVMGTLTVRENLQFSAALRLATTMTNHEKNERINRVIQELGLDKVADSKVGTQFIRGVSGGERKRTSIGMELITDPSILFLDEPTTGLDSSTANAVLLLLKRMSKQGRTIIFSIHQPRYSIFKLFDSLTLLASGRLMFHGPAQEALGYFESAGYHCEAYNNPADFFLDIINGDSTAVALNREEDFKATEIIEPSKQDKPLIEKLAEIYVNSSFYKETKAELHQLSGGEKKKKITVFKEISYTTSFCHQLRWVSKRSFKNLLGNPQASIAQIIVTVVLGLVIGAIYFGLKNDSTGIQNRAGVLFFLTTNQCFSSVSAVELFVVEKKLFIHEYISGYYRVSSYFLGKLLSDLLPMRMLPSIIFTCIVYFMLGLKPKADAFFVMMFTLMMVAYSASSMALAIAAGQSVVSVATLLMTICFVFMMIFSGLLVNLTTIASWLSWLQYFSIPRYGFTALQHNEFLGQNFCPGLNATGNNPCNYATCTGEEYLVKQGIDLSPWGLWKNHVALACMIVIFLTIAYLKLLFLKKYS
Chain of UniProt P00760 (whole entry, looked up): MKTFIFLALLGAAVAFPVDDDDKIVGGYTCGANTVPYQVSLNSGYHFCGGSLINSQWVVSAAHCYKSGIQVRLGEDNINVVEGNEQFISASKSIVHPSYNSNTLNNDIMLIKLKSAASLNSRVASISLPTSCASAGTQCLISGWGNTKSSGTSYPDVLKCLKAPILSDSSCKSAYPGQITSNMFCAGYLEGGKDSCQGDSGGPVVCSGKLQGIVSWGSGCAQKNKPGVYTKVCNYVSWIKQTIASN
Chain of UniProt P11509 (whole entry, looked up): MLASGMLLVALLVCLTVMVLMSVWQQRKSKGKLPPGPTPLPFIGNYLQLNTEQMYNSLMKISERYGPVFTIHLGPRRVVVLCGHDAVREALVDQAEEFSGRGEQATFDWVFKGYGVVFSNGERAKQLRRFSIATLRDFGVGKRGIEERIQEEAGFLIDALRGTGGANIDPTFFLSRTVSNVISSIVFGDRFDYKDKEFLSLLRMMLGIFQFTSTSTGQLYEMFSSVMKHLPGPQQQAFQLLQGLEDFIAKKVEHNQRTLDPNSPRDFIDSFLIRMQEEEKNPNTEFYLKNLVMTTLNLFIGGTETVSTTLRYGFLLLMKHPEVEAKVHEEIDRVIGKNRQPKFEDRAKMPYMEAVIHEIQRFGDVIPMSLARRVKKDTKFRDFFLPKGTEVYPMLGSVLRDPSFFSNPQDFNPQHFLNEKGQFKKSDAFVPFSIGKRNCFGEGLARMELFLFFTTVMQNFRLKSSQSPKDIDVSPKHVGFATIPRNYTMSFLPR
Chain of UniProt Q9NPD5 (whole entry, looked up): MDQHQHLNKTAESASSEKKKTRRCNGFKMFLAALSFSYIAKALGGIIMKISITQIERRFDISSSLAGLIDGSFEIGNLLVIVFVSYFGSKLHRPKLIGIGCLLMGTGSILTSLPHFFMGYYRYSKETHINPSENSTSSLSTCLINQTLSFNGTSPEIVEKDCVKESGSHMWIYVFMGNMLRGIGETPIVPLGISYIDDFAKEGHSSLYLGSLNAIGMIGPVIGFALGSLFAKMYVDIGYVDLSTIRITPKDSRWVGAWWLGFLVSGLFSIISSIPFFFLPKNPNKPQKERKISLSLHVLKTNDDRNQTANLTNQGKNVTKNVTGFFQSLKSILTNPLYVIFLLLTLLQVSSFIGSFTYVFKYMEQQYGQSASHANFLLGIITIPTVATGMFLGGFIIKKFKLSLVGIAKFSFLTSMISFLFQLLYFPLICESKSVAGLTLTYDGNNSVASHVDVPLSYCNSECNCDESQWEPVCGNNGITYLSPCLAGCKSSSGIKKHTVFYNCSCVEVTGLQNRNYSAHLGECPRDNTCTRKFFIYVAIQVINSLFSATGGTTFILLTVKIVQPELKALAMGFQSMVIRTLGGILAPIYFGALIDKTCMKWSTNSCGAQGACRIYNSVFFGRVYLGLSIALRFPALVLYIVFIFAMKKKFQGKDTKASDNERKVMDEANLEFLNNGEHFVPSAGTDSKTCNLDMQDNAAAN

| Molecule | target or system | test | test system | conditions | scale | measurement | result |
| --- | --- | --- | --- | --- | --- | --- | --- |
| CC[C@H](C)[C@H](NC(=O)[C@H](CCC(=O)O)NC(=O)[C@H](CO)NC(=O)[C@@H](NC(=O)[C@@H](N)CO)C(C)C)C(=O)N[C@@H](CCC(N)=O)C(=O)N[C@@H](CC(C)C)C(=O)N[C@@H](CCSC)C(=O)N[C@@H](Cc1cnc[nH]1)C(=O)N[C@@H](CC(N)=O)C(=O)N[C@@H](CC(C)C)C(=O)NCC(=O)N[C@@H](CCCCN)C(=O)N[C@@H](Cc1cnc[nH]1)C(=O)N[C@@H](CC(C)C)C(=O)N[C@@H](CC(N)=O)C(=O)N[C@@H](CO)C(=O)N[C@@H](CCSC)C(=O)N[C@@H](CCC(=O)O)C(=O)N[C@@H](CCCN=C(N)N)C(=O)N[C@H](C(=O)N[C@@H](CCC(=O)O)C(=O)N[C@@H](Cc1c[nH]c2ccccc12)C(=O)N[C@@H](CC(C)C)C(=O)N[C@@H](CCCN=C(N)N)C(=O)N[C@@H](CCCCN)C(=O)N[C@@H](CCCCN)C(=O)N[C@@H](CC(C)C)C(=O)N[C@@H](CCC(N)=O)C(=O)N[C@@H](CC(=O)O)C(=O)N[C@H](C(=O)N[C@@H](Cc1cnc[nH]1)C(=O)N[C@@H](CC(N)=O)C(=O)N[C@@H](Cc1ccccc1)C(=O)O)C(C)C)C(C)C | Serine protease 1 (PRSS1, Bos taurus, UniProt P00760) | substrate, HPLC-UV | Tris buffer | 5 min, pH 6.5, 37 °C, together with: bovine trypsin 0.5 mg, no SBTI |  | remaining intact compound | 0% |
| CCCCCCCCCCCC[N+](C)(C)Cc1ccccc1 | Oncorhynchus mykiss | liver S9 substrate depletion | pooled rainbow trout liver S9 | pH 7.8, tested individually |  | intrinsic clearance in vitro | 0.142 mL/h/mg S9 protein |
| Oc1ccc(/C=C/c2cc(O)cc(O)c2)cc1 | Drosophila melanogaster | wing spot test | high bioactivation cross, wings | oral, concentration not given |  | twin spots per fly | 0.01 Spots per Fly and 0.02 Spots per Fly |
| NC(=O)C1CCN(c2ccc(C(=O)N3CCc4ccccc43)cn2)C1 (centres unmarked) | Trypanosoma brucei | viability, flow cytometry | bloodstream form | 24 h |  | EC50 | > 25 µM |
| O=C(c1cccc(Cl)c1)N1CCN(c2cc(-c3ccccc3)nc3cc(-c4cccc(Cl)c4)nn23)CC1 | ABCG2 | JC-1 dye efflux, inhibitor, flow cytometry | ABCG2-overexpressing cells | together with: JC-1 1 µM |  | IC50 | 2.95 ± 0.57 µM |
| O=C(O[C@@H]1Cc2c(O)cc(O)cc2O[C@@H]1c1cc(O)c(O)c(O)c1)c1cc(O)c(O)c(O)c1 | Caco-2 |  | PBS | concentration not given, 1 h, after 3 h loading | reference: accumulated | cellular retention | 56.8 ± 0.81% |
| CCCCCCCCCCCCCCN(C)C | Oncorhynchus mykiss | liver S9 substrate depletion | rainbow trout liver S9 | tested individually |  | intrinsic clearance in vitro | 1.29 mL/h/mg S9 protein |
| COc1cccc(-c2cc(N3CCN(C(=O)c4ccoc4)CC3)n3nc(-c4ccccc4)cc3n2)c1 | ABCG2 | JC-1 dye efflux, inhibitor, flow cytometry | ABCG2-overexpressing cells | together with: JC-1 1 µM |  | IC50 | 0.2 µM |
| CCCCCCCCCCNC | Oncorhynchus mykiss | liver S9 substrate depletion | rainbow trout liver S9 | tested individually |  | intrinsic clearance in vivo | 51 mL/h/g liver |
| O=C(c1ccccc1)N1CCN(c2cc(-c3ccccc3)nc3cc(-c4cccc(Cl)c4)nn23)CC1 | ABCG2 | JC-1 dye efflux, inhibitor, flow cytometry | ABCG2-overexpressing cells | together with: JC-1 1 µM |  | IC50 | 1.45 ± 0.59 µM |
| C=CC(=O)N1CCC([C@@H]2CCNc3c(C(N)=O)c(-c4ccc(Oc5ccccc5)cc4)nn32)CC1 | SLCO1B3 (Homo sapiens, UniProt Q9NPD5) | transport, refers to: estradiol-17β-glucuronide uptake | HEK293 transfected | 5 µM | reference: vehicle | remaining activity | 74.1 ± 10% |
| CCCCCCCCCCCCNC | Oncorhynchus mykiss | liver S9 substrate depletion | rainbow trout liver S9 | tested individually |  | intrinsic clearance in vitro | 0.555 mL/h/mg S9 protein |
| CC(=O)N1CCN(c2cc(-c3ccccc3)nc3cc(-c4cccc(Cl)c4)nn23)CC1 | ABCG2 | JC-1 dye efflux, inhibitor, flow cytometry | ABCG2-overexpressing cells | together with: JC-1 1 µM |  | IC50 | 6.07 ± 0.73 µM |
| liraglutide | α1-acid glycoprotein human | equilibrium dialysis |  | 10 nM, 4 to 5 h, pH 7.4, 37 °C, ratio 20:1 (95% bound), together with: AAGP 1 mg/mL |  | protein binding | 96.9% |
| O=C(c1ccsc1)N1CCN(c2cc(-c3ccccc3)nc3cc(-c4cccc(Cl)c4)nn23)CC1 | ABCG2 | JC-1 dye efflux, inhibitor, flow cytometry | ABCG2-overexpressing cells | together with: JC-1 1 µM |  | IC50 | 1.4 ± 0.32 µM |
| CC/C(=C(\c1ccccc1)c1ccc(OCCN(C)C)cc1)c1ccccc1 | MDA-MB-231 | necrosis |  | 24 h |  | EC50 | 26.3 µM |
| O=C(c1ccoc1)N1CCN(c2cc(-c3ccco3)nc3cc(-c4ccccc4)nn23)CC1 | ABCG2 | JC-1 dye efflux, inhibitor, flow cytometry | ABCG2-overexpressing cells | together with: JC-1 1 µM |  | IC50 | 0.13 ± 0.03 µM |
| C=C(C[C@H](N)C(=O)O)C(=O)NCc1ccc([N+](=O)[O-])cc1 | MCF-10A | necrosis |  | 24 h |  | EC50 | > 316 µM |
| CCCCCCCCCCCCCCCCNC | Oncorhynchus mykiss | liver S9 substrate depletion | rainbow trout liver S9 | tested individually |  | intrinsic clearance in vivo | 33 mL/h/g liver |
| COc1ccccc1-c1cc2nc(-c3ccccc3)cc(N3CCN(C(=O)c4ccoc4)CC3)n2n1 | ABCG2 | JC-1 dye efflux, inhibitor, flow cytometry | ABCG2-overexpressing cells | together with: JC-1 1 µM |  | IC50 | 0.45 ± 0.17 µM |
| CCCCCCCCCCN(C)C | Oncorhynchus mykiss | liver S9 substrate depletion | rainbow trout liver S9 | tested individually |  | intrinsic clearance in vitro | 2.18 mL/h/mg S9 protein |
| CNCc1ccc(-c2[nH]c3cc(F)cc4c3c2CCNC4=O)cc1 |  |  | human patients, plasma | oral, 480 mg twice daily, day 15, steady state, median |  | Tmax | 1.51 h |
| CCCCCCCCN(C)C | Oncorhynchus mykiss | liver S9 substrate depletion | pooled rainbow trout liver S9 | pH 7.8, tested individually |  | intrinsic clearance in vitro | 1.32 mL/h/mg S9 protein |
| O=C(c1ccoc1)N1CCN(c2cc(-c3ccccc3F)nc3cc(-c4ccccc4)nn23)CC1 | ABCG2 | JC-1 dye efflux, inhibitor, flow cytometry | ABCG2-overexpressing cells | together with: JC-1 1 µM |  | IC50 | 0.56 µM |
| CCCCCCCCCN | Oncorhynchus mykiss | liver S9 substrate depletion | pooled rainbow trout liver S9 | pH 7.8, tested individually |  | intrinsic clearance in vivo | 12 mL/h/g liver |
| O=C1CC(c2ccccc2)Oc2ccccc21 (centres unmarked) | Cytochrome P450 2A6 (CYP2A6, Homo sapiens, UniProt P11509) | substrate, refers to: 4'-hydroxy metabolite formation |  | reconstituted system |  | Km | 13 µM |

For quick reference, copied from above:
| Molecule | target or system | test | test system | conditions | scale | measurement | result |
| --- | --- | --- | --- | --- | --- | --- | --- |
| COc1cccc(-c2cc(N3CCN(C(=O)c4ccoc4)CC3)n3nc(-c4ccccc4)cc3n2)c1 | ABCG2 | JC-1 dye efflux, inhibitor, flow cytometry | ABCG2-overexpressing cells | together with: JC-1 1 µM |  | IC50 | 0.2 µM |
| CCCCCCCCCCCCNC | Oncorhynchus mykiss | liver S9 substrate depletion | rainbow trout liver S9 | tested individually |  | intrinsic clearance in vitro | 0.555 mL/h/mg S9 protein |
| CCCCCCCCCCNC | Oncorhynchus mykiss | liver S9 substrate depletion | rainbow trout liver S9 | tested individually |  | intrinsic clearance in vivo | 51 mL/h/g liver |
